# Results pooled from the literature.
# Each numbered part is a random draw from the data of one study; scales do not carry over between parts. Substitutions count along the parent as printed.

# Sample 1
# Target: Ras GTPase-activating protein-binding protein 1, RRM domain (G3BP1, Homo sapiens, UniProt Q13283)
# Chain of UniProt Q13283 (whole entry, looked up): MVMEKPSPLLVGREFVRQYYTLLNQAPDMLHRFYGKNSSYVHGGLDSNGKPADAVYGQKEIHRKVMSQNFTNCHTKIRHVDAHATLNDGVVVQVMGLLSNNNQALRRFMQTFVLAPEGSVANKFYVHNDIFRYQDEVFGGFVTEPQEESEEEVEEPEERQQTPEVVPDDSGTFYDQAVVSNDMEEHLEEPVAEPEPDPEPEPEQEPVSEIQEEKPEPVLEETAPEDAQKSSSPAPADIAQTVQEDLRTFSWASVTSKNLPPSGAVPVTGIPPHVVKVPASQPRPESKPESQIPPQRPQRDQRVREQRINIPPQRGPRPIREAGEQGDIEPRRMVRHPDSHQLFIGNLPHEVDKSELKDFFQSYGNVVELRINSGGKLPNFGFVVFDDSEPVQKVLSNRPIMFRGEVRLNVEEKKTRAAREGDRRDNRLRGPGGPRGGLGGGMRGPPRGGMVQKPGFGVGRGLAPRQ
# Technique: RNA Bind-n-Seq
# Molecule type: RNA
# Sample: in vitro
# Tested at: 1 µM
# Notes: whole 134-nt RNA, ends assumed
# Added: 150 mM KCl
# Baseline: input library
# Direction: higher = stronger binding
# All sequences stand within: GGGAGUUCUACAGUCCGACGAUC … UGGAAUUCUCGGGUGUCAAGG
Oligonucleotide,log2 enrichment
UCCUGUGCUACACAUCGUAUGUACCGAAUCAAAUUUAAAUUUUUUUAAAUUUUUUUAAAAAAGUAUUAUGUUACGCCGUUCGGAUCUGCA,-0.173
CUCAAGUCCUGUGCUACACAUCGUAUGUACCGAAUCGGGCGGGGCGGGCGGGGAAAGUAUUAUGUUACGCCGUUCGGAUCUGCACUUCCA,0.53
UAACUUUAGAGGAGGAUCUGAUGGAUAUGGCAGUGGACGUGGUUUUGGGGAUGGCUAUAAUGGGUAUGGAGGAGGACCUGGAGGUGGCAA,-0.55
AAGUCCUGUGCUACACAUCGUAUGUACCGAAUCGGAAAGGGGAAAGGGGAAAGGGGAAAGUAUUAUGUUACGCCGUUCGGAUCUGCACUU,0.285
GUCCUGUGCUACACAUCGUAUGUACCGAAUCGGUUUUUUGGGGUUUUUUGGUUUUUUGGAAAGUAUUAUGUUACGCCGUUCGGAUCUGCA,-0.207
GCAGGCAGUAAAAACAAAUGGAAAUGCUUCGGAUAGUGGCAGGGGUGGGGGUUGCUAAGGAAAGGGUGGGAUGGGAGUGGGUAAAGAGUU,1.66
GCAGGAAGUAAAAACAAAUGGAAAUAAAUCGGAUAGUGGCAGGGGUGGGGGUUGCUAAGGAAAGGGUGGGAUGGGAGUGGGUAAAGAGUU,1.11
AAGUCCUGUGCUACACAUCGUAUGUACCGAAUCGGGGAGGGGUGGGGUUUUUGGGGAAAGUAUUAUGUUACGCCGUUCGGAUCUGCACUU,0.7
GGUGGACUAUGGUGCAACAGCAGAAGAGCUGGAAGCUCACUUUCAUGGCUGUGGUUCAGUCAACCGUGUUACCAUACUGUGUGACAAAUU,-0.193

# Sample 2
# Target: RING finger protein unkempt homolog, zinc fingers 1-6, GST-SBP tag (UNK, Homo sapiens, UniProt Q9C0B0, residues 30-357)
# Chain of UniProt Q9C0B0 (30-357, looked up): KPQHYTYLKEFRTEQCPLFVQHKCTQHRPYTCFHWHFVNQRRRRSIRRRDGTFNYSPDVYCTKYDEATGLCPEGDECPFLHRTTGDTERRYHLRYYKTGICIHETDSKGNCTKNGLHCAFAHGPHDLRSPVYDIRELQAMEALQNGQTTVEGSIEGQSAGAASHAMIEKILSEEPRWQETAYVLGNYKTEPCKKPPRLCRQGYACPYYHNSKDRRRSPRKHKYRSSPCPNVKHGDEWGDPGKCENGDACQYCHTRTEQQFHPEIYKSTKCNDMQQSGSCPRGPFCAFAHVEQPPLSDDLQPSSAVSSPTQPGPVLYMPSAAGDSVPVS
# Technique: RNA Bind-n-Seq
# Molecule type: RNA
# Sample: in vitro
# Tested at: not given
# Notes: RNA with constant flanks, human-mouse chimeric sites, ends assumed
# Baseline: input RNA pool
# Direction: higher = stronger binding
# All sequences stand within: GGGAGUUCUACAGUCCGACGAUC … CAACAGAGGAUUGAGCAUCA
Oligonucleotide,bound/input enrichment
CGCUGGCGUUGAACUGUGGACUCUGAUGGCCUCCAUCUCUCAGGCACGUUUGCCUUCUCUUAGUCCCUGUUUUCGGGAUGUUAUGAAUCUCAGUACUGUGGUUUGAAAGCACCAGCUUUG,0.249 ratio
AGAAUCUGUGACUGGCUUUACUUAAUUGGUCAUUGAUAGCUUAACAAGCAUGGAGAUAAGAUUAGAAAUCUUGACAUCAACAGGUAUUAAGCAGAAAAAACCAUGGCCACGUGUCUCCUG,0.129 ratio
UAAGUUAUUUUGUACAGCUUUGUAAAUUCUUAACAUUUUUAUAUUGCACAUUUUAUGUUGUUUGGGUAAUUUGGUUCAUUAAGUACAUAGCUAAGGUAAUGAACAUCUUUUUCAGUAAUU,0.893 ratio
CAGUCCCCGUGUCCCAGUGCAGGACGAUGUGAACAAAUCGAAGACAUGGCCCUUUCUUUGUAGUUCUUGAUUCUCGAAAUGUGCUAUUAUUGUUUGUCUUUUUUUUUUUUUUUUUAAAGA,1.18 ratio
GACUUUGGGACUGGUCCUCGUAAUGCAGCCUUCUAUAGCCCUCAUGGACAUAUAUUAGUGCUGGCUGGAUUUGGAAAUCUUCGAGGACAAAUGGAAGUGUGGGAUGUUAAAAACUACAAG,0.402 ratio
CUCAUGGCUGCAGAAACAGGAAGUGGCAAAACUGGUGCAUUUAGUAUUCCCGUUAUCCAGAUAGUUUAUGAAACUCUGAAAGACCAACAGGAAGGAAAGAAAGGGAAAACAACUAUUAAA,0.764 ratio
UAAAUCCUGUGCCAGCACUUCGCUCAUAAAGUUUUAAAUUCUGGACCAAUAGUGUUUGUUUCCUGAUUAUUGUAUCCAAUACUUUGCCUAGUAUGUAACUCAUGCUUACUGAUAAUAAAA,0.651 ratio
AAAGAGUGGAUAGAGUGUGCACAUGGAAUCGGUGGGACCCGGGCGAAAAAGGAGUGCAAGAUAGAGUUCGAUGACUUCGAAGAGUGCUUGCUUCGGCACAAAACGAUGAGGCGAAUGCAU,0.41 ratio

# Sample 3
# Target: CCND3, cyclin fold, Cln2 fusion (human)
# Technique: yeast growth competition, sequencing
# Sample: yeast
# Notes: weak parent motif
# Baseline: not given
# Direction: higher = stronger binding
# Starting sequence: RBL1 docking peptide (human); GSAKRRLFGEDPP
Substitution,normalised enrichment score
GEAKRRLFGEDPP [S2E],0.102
GYAKRRLFGEDPP [S2Y],0.0887
GSAKKRLFGEDPP [R5K],0.0257
GSAKRRLFGEDPI [P13I],0.0826
GSAKRRLFGEDPW [P13W],0.195
GSASRRLFGEDPP [K4S],0.0918
GSAKRYLFGEDPP [R6Y],0.237
GHAKRRLFGEDPP [S2H],0.161
GSAKRKLFGEDPP [R6K],0.113
GSTKRRLFGEDPP [A3T],0.177
GSAKRRLFGVDPP [E10V],0.14
GSAKARLFGEDPP [R5A],0.161
GSAKRRLFGEFPP [D11F],0.033

# Other studies, line by line
Molecule,target,test,test system,conditions,scale,quantity,value
"PhoQ, residues 284 288 289 292 302 303 ALAMYF","PhoP, residues 12 14 15 18 19 SYFRT (Escherichia coli, UniProt P23836)","Sort-seq, item: YFP reporter",E. coli,"PhoQ-PhoP variant library, added: 10 µM Mg2+","baseline: high Mg2+ state, higher = stronger signaling",fold induction,8.08

# Repeated from above (sample 3):
Substitution,normalised enrichment score
GYAKRRLFGEDPP [S2Y],0.0887
GSAKKRLFGEDPP [R5K],0.0257
GSAKRRLFGEDPI [P13I],0.0826
GSAKRRLFGEDPW [P13W],0.195
